# Experimental data gathered from unrelated publications.
# Numbered parts are unrelated; each lists some results of a single study. Substitutions count along the parent as printed.

# Study 1
# Target: CCNE2, cyclin fold, Cln2 fusion (human)
# Technique: yeast growth competition, sequencing
# Medium: yeast
# Notes: weak parent motif
# Relative to: not given
# Reading: higher = stronger binding
# Starting sequence: SLBP docking peptide (human); ARYKRKLLINDFG; partner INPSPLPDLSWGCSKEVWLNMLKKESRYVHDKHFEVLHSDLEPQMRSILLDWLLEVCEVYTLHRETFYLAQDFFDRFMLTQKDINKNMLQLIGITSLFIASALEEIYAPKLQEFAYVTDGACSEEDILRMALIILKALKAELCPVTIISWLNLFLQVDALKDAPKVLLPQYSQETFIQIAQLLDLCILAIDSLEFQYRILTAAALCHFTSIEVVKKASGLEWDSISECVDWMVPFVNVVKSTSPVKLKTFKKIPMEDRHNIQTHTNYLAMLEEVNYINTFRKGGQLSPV
Substitution,normalised enrichment score
YRYKRKLLINDFG [A1Y],-0.104
KRYKRKLLINDFG [A1K],0.0258
ARYKYKLLINDFG [R5Y],0.442

# Study 2
# Target: RNA binding protein fox-1 homolog 2, RRM domain, GST-SBP tag (RBFOX2, Homo sapiens, UniProt O43251-10, residues 100-194)
# Technique: RNA Bind-n-Seq
# Form: RNA
# Medium: in vitro
# Concentration: 365 nM
# Notes: natural RNA segment, single round, ends assumed
# Relative to: no-protein control
# Reading: higher = stronger binding
# Constant ends, left off below: GGGAGUUCUACAGUCCGACGAUC … UGGAAUUCUCGGGUGCCAA
# Residues (chain): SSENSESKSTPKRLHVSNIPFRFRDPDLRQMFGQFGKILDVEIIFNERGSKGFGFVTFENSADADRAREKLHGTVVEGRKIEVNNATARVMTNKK
Strand,RBNS enrichment (R)
CCCUGCCCUUUAAUGCGCCCAAGUGACAGAACCAGGCUGAGUCCAGCUUGUCUGAGUCAGCUCAUCCCCCUCCAGCCAGGCCUGACCAGGGAUUCAUAGAGUUCCGGGCC,0.335
UUUUCAUUGAGUUAUUUCCUCAUUCUUUUAAAAAAUAAGGGACUAUAAAUCAGUUAUGUAGUAUCUUUUGUUUUUGUAGCUGAUUCCUUAACUUUCUUGUAUGCCUCUAG,0.695
ACGAAGGGAGGUCCUGCUCACUCCAUUUCUUUCGUUUGAAGCAGAAGGGAUGUGUAGCCAGGGAAGGCUCCCUUCACCAGUGUAAAGAGCUGAUACAGUACUCAGAAGAC,0.302
CCACCAUAAAACUGGAAGCUGCUUCCCCUGUAGUCCCCAUUUCAGUACCAGUUCUGCCAGCCACAGUGAGCCCCUAUUAUUACUUUCAGAUUGUCUGUGACACUCAAGCC,0.889
UAUUUUACUGGGAAGACGUGUAACUCUUUGGGUUAUUACUGUCUUUACUUCUAAAGAAGUUAGCUUGAACUGAGGAGUAAAAGUGUGUACAUAUAUAAUAUACCCUUACA,0.319

# Study 3
# Target: RING finger protein unkempt homolog, zinc fingers 1-6, GST-SBP tag (UNK, Homo sapiens, UniProt Q9C0B0, residues 30-357)
# UniProt Q9C0B0, sequence (30-357, looked up): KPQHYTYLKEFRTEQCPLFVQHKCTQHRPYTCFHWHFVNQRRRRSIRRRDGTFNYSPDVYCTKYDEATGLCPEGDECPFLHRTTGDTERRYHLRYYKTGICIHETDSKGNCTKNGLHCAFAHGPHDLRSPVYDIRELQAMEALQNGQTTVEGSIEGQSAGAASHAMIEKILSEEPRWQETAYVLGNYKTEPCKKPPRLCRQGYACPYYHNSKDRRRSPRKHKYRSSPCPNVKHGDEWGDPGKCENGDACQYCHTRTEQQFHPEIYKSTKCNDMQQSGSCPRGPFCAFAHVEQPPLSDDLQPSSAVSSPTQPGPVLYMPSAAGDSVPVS
# Technique: RNA Bind-n-Seq
# Form: RNA
# Medium: in vitro
# Concentration: not given
# Notes: RNA with constant flanks, human and mouse sites, ends assumed
# Relative to: input RNA pool
# Reading: higher = stronger binding
Strand,bound/input enrichment
GGGAGUUCUACAGUCCGACGAUCCAGGGCCAAAACUGGAACCAAGGAUUUAAUAACUAUUAUGAUCAAGGAUAUGGAAAUUACAAUAGUGCCUAUGGUGGUGAUCAAAACUAUAGUGGCUAUGGCGGAUAUGAUUAUACUGGGCAACAGAGGAUUGAGCAUCA,1.07 ratio
GGGAGUUCUACAGUCCGACGAUCUAAUUAUUCACCUUUAGCUUUUGUCUCUUGUGCAUGCUAUCACAGUUUUGCUUGUAUUUUUAGCAUAUGAACAUUUAUAAAGUCACUUUUUUUGUUACUGCAAUUUUGUCUGAUUUAUCCCAACAGAGGAUUGAGCAUCA,8.42 ratio
GGGAGUUCUACAGUCCGACGAUCGCGGAGAAGGACUCUCUGGACCCCUCCUUCACGCACGCCCUGCGCUUGGUGAACCGAGAAAUAGAAAAGUUUCAAAAGGGAGAAGGCAAGGAGGAAGAGAAGUACAUUGACGUGGUGAUACAACAGAGGAUUGAGCAUCA,0.375 ratio
GGGAGUUCUACAGUCCGACGAUCGAGAGUGAUGAAGAGGGGCAUUCCCCGGUCCUGGGCGGCCUUGGGCCGCCUUUUGCCUUCAAUUUGAACAGUGACACAGAUGUGGAAGAAGGUCAGCAACCAGCCACAGAGGAGGCCUCCCAACAGAGGAUUGAGCAUCA,0.348 ratio

# Single results of other studies
Molecule,target,assay,test system,conditions,how to read,endpoint,value
"PhoQ, residues 284 288 289 292 302 303 NLALSC","PhoP, residues 12 14 15 18 19 NMSFL (Escherichia coli, UniProt P23836)","Sort-seq, measured: YFP reporter",E. coli,"PhoQ-PhoP variant library, with: 10 µM Mg2+","relative to: high Mg2+ state, higher = stronger signaling",fold induction,1.4
